Results pooled from the literature.
Protocols differ between the studies behind these lines. ± gives the spread as reported.
Organism: Klebsiella aerogenes

Compound | assay | system | conditions | endpoint | value
c1ccc(CN2CCOCCOCCN(CCCCCCCCCCN3CCOCCOCCN(CCCCCCCCCCN4CCOCCOCCN(Cc5ccccc5)CCOCCOCC4)CCOCCOCC3)CCOCCOCC2)cc1 | – | cephalosporin-resistant | – | MIC | 26 µM
CO[C@@H](C(N)=O)[C@H](NC(=O)c1ccc(NC(=O)c2ccc([N+](=O)[O-])cc2)cc1)C(=O)Nc1ccc(C(=O)Nc2ccc(C(=O)Nc3ccc(C(=O)O)cc3)c(O)c2OC(C)C)cc1 | microbial growth | DSM30053 | – | MIC | > 64 µg/mL
COc1cc(OC)c2c(c1)C(=O)c1cc3oc(=O)cc(-c4ccc(Cl)cc4)c3c(O)c1C2=O | – | – | – | MIC | 32 µg/mL
c1ccc(CN2CCOCCOCCN(CCCCCCCCCCCCCCN3CCOCCOCCN(CCCCCCCCCCCCCCN4CCOCCOCCN(Cc5ccccc5)CCOCCOCC4)CCOCCOCC3)CCOCCOCC2)cc1 | – | cephalosporin-resistant | – | MIC | 12 µM
Cc1cc(O)cc2c1C(=O)c1c(cc3oc(=O)cc(C)c3c1O)C2=O | microbial growth, disc diffusion | – | 100 µg/disc | inhibition zone | 14 mm
CCOC(=O)C1=C(C)NC2=C(C(=O)CC(C)(C)C2)C1c1ccc(OCC(=O)NN=Cc2cc(Br)c(O)c(Br)c2)cc1OCC(=O)NN=Cc1cc(Br)c(O)c(Br)c1 (stereo not shown) | – | CCM 2531 | concentration not given, 24 h, 37 °C | inhibition zone diameter | 7.3 ± 0.01 mm
COc1c(NC(=O)c2ccc(NC(=O)c3ccc(NC(=O)[C@H](CC#N)NC(=O)c4ccc(NC(=O)/C(C)=C/c5ccc(O)cc5)cc4)cc3)c(OC)c2O)ccc(C(=O)O)c1O | microbial growth | DSM30053 | – | MIC | > 64 µg/mL
CCOC(=O)C1=C(C)NC2=C(C(=O)CC(C)(C)C2)C1c1ccc(OCC(=O)NN=Cc2cccc([N+](=O)[O-])c2)cc1OCC(=O)NN=Cc1cccc([N+](=O)[O-])c1 (stereo not shown) | – | CCM 2531 | concentration not given, 24 h, 37 °C | inhibition zone diameter | 3.1 ± 0.01 mm
COc1c2c(cc3oc(=O)cc(-c4ccc(Cl)cc4)c13)C(=O)c1cc(C)cc(O)c1C2=O | – | – | – | MIC | > 100 µg/mL
CN1/C(=C/C=C/c2cc(-c3ccccc3)cc(-c3ccccc3)[o+]2)C(C)(C)c2ccccc21 | microbial growth, broth dilution | ATCC13048 | – | MIC | 16 µg/mL

Excerpt of the above:
Compound | assay | system | conditions | endpoint | value
CN1/C(=C/C=C/c2cc(-c3ccccc3)cc(-c3ccccc3)[o+]2)C(C)(C)c2ccccc21 | microbial growth, broth dilution | ATCC13048 | – | MIC | 16 µg/mL
COc1c(NC(=O)c2ccc(NC(=O)c3ccc(NC(=O)[C@H](CC#N)NC(=O)c4ccc(NC(=O)/C(C)=C/c5ccc(O)cc5)cc4)cc3)c(OC)c2O)ccc(C(=O)O)c1O | microbial growth | DSM30053 | – | MIC | > 64 µg/mL
